# Measured values of several laboratories.
# Every numbered part comes from another study and shows a few of its results, in no order. Changes are numbered by the printed parent chain.

# Block 1 — method: universal PBM; molecule type: double-stranded DNA, one strand shown; sample: in vitro; tested at: not given; direction: higher = stronger binding
# Target: Sal-like protein 4, full length isoform B (SALL4, Homo sapiens, UniProt Q9UJQ4-2, residues 1-616)
# Setting: 8-mer, flanks averaged, mean of replicates
# Target sequence (chain): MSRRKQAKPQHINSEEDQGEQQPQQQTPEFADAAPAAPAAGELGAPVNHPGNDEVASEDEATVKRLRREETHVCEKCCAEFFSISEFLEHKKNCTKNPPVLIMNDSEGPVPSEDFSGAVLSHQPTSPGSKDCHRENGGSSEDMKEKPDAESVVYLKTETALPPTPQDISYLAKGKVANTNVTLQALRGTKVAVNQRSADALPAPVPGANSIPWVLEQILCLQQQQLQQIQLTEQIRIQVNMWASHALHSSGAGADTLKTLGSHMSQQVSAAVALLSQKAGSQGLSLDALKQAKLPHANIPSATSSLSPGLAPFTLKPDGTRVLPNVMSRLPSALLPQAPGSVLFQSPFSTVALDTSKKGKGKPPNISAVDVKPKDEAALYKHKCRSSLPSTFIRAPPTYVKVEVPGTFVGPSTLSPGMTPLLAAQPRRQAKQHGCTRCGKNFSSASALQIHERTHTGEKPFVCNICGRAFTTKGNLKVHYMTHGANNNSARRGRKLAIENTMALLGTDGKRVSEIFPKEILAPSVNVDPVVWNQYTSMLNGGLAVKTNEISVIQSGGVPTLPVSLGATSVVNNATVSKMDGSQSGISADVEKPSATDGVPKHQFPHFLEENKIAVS
Oligonucleotide,E-score
AAATGGTC,0.121
GGGCAGTA,-0.211
TTCTCCAA,0.0538
CCCGAAAC,-0.165
AAGAACGT,0.149
GTGCGCTA,-0.105
AGTACCGA,-0.116
ATGGCTAA,0.164
TAAAGGTA,0.225

# Block 2 — target: CCND3, cyclin fold, Cln2 fusion (human); method: yeast growth competition, sequencing; sample: yeast; setting: weak parent motif; baseline: not given; direction: higher = stronger binding
# Starting sequence: RBL1 docking peptide (human); GSAKRRLFGEDPP
Substitution,normalised enrichment score
F8A,0.119
A3C,0.137
R6S,0.149
R5V,0.114

# Block 3 — method: protein binding microarray; molecule type: double-stranded DNA, one strand shown; sample: in vitro; tested at: not given; baseline: not given; direction: higher = stronger binding
# Target: Histone acetyltransferase KAT6A, winged helix 1, GST fusion (KAT6A, Homo sapiens, UniProt Q92794, residues 1-85)
# Setting: 8-mer, flanks averaged, mean of 2 arrays, mostly near background
# Construct (chain): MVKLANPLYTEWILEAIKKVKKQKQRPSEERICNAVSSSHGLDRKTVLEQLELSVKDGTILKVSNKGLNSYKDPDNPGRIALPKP
Oligonucleotide,E-score
CGCGATTC,0.33
ATGCCAGC,-0.0154
CTCTCATC,-0.334
AAATCCTT,-0.19
CTATGACA,-0.0254
GTCTATCA,-0.0978
AGACATCA,-0.0503
CCACTCGG,-0.12
AGATACAC,-0.0408

# Further values, each from its own experiment
Molecule,target,assay,system,conditions,how to read,endpoint,value
"PhoQ, residues 284 288 289 292 302 303 SSLVEF","PhoP, residues 12 14 15 18 19 LHSVQ (Escherichia coli, UniProt P23836)","Sort-seq, measured: YFP reporter",E. coli,"PhoQ-PhoP variant library, added: 10 µM Mg2+","baseline: high Mg2+ state, higher = stronger signaling",fold induction,1.84
